Measured values from different studies.
Lines come from different studies, so protocols differ. Several values in a cell are separate wells, animals, samples, runs or records. Numbers after ± are the reported error.

| Compound | test | system | conditions | plasma concentration |
| --- | --- | --- | --- | --- |
| CC(C)c1nc(N(C)S(C)(=O)=O)nc(-c2ccc(F)cc2)c1/C=C/[C@@H](O)C[C@@H](O)CC(=O)O | – | Wistar albino rat, both sexes, plasma | oral, 20 mg/kg, 1 h | 578 ng/mL |
| Cc1cccc(Cn2cc(CO)c3cnccc32)c1 | – | rat, plasma | oral, 100 mg/kg/day, 4 h, day 2 | 8 ng/mL and 6.2 ng/mL and 8.3 ng/mL |
| Cc1cc(C)cc(C(=O)c2c(C(C)C)c(=O)[nH]c(=O)n2Cc2ccnc(N)c2)c1 | HPLC-DAD | Sprague-Dawley rat, plasma | oral, 100 mg/kg | not detected |
| CC(C)(O)c1coc(S(=O)(=O)NC(=O)Nc2c3c(cc4c2CCC4)CCC3)c1 | – | Sprague-Dawley rat, male | oral, 2 mg/kg, 6 h | 4.63 ng/mL and 2.92 ng/mL and 9.5 ng/mL |
| COc1cc(F)c([C@@H]2CNC(=O)[C@H]2NC(=O)Nc2ccccc2)c(F)c1 | – | Sprague-Dawley rat, ischaemia-reperfusion, plasma | 1 mg/kg, 2 h | 92 ± 46 nM |
| CCOCc1nc(O)c(-c2nnc(Cc3ccc(Cl)cn3)o2)c(O)c1-c1c(OC)cccc1OC | – | rat, anaesthetised, cannulated, plasma | intravenous infusion, 10 µg/kg/min, 15 min | 1640 nM |
| COc1cccc(-c2n[nH]c(SCc3ccccn3)n2)c1OC | – | Sprague-Dawley rats, both sexes | oral dietary, 30 mg/kg/day, day 90, 3 h | 2220 ng/mL |
| Cc1ccc(S(=O)(=O)n2cc3c4c2C(=O)C(NCc2ccc(Cl)cc2)=CC4=NCC3)cc1 | – | Sprague-Dawley rat, plasma | intravenous, 5 mg/kg, 1 h | 438 ± 203 ng/mL |
| Cc1ccc2c(c1)nc(/C=C/c1cccc3cccnc13)n2-c1cccc(OCCCN2CCN(C)CC2)c1 | – | male Sprague-Dawley rat | oral, 10 mg/kg, 8 h | 452 ± 108 nM |
| CCN(Cc1ccc(F)cc1)c1ccc(CO)c(Cl)c1 | – | rat, plasma | oral, 100 mg/kg/day, 4 h, day 2 | 216 ng/mL and 109 ng/mL and 214 ng/mL |
| Cc1ccc2c(c1)C(=O)[C@]1(O)CCN(c3ccc4nc(C)ccc4c3)C1=N2 | – | rat, plasma | subcutaneous, 60 mg/kg, 1 h | 4800 ± 600 nM |
